Results from different studies.
Lines come from different studies, so protocols differ. Numbers after ± are the reported error.
UniProt Q9UIQ6, sequence (whole entry, looked up): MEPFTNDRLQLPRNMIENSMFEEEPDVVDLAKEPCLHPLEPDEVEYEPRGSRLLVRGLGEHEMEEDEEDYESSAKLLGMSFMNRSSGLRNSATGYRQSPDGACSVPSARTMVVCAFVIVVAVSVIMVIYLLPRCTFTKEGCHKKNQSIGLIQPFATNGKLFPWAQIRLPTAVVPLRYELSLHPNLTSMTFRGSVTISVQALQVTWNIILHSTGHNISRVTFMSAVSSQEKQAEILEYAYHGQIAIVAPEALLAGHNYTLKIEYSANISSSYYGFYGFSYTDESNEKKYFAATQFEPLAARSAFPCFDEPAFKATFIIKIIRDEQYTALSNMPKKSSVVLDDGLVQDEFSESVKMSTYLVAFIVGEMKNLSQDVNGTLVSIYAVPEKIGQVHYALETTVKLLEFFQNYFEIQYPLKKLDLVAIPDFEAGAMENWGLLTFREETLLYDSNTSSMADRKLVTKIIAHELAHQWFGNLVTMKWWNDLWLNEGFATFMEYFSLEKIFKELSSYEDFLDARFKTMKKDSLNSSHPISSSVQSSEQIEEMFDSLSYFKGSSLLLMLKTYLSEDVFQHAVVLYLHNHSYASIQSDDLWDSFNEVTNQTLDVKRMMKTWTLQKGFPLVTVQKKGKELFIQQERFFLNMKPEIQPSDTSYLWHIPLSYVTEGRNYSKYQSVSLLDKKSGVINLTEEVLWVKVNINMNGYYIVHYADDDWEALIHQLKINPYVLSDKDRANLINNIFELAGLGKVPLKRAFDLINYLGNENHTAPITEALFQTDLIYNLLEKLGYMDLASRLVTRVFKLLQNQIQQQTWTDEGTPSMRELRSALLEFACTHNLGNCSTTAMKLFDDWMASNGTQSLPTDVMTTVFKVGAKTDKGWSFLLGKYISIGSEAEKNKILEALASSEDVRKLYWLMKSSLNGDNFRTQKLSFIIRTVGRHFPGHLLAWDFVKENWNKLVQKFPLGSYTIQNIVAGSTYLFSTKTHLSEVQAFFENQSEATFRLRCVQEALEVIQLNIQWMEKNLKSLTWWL
UniProt P29994, sequence (whole entry, looked up): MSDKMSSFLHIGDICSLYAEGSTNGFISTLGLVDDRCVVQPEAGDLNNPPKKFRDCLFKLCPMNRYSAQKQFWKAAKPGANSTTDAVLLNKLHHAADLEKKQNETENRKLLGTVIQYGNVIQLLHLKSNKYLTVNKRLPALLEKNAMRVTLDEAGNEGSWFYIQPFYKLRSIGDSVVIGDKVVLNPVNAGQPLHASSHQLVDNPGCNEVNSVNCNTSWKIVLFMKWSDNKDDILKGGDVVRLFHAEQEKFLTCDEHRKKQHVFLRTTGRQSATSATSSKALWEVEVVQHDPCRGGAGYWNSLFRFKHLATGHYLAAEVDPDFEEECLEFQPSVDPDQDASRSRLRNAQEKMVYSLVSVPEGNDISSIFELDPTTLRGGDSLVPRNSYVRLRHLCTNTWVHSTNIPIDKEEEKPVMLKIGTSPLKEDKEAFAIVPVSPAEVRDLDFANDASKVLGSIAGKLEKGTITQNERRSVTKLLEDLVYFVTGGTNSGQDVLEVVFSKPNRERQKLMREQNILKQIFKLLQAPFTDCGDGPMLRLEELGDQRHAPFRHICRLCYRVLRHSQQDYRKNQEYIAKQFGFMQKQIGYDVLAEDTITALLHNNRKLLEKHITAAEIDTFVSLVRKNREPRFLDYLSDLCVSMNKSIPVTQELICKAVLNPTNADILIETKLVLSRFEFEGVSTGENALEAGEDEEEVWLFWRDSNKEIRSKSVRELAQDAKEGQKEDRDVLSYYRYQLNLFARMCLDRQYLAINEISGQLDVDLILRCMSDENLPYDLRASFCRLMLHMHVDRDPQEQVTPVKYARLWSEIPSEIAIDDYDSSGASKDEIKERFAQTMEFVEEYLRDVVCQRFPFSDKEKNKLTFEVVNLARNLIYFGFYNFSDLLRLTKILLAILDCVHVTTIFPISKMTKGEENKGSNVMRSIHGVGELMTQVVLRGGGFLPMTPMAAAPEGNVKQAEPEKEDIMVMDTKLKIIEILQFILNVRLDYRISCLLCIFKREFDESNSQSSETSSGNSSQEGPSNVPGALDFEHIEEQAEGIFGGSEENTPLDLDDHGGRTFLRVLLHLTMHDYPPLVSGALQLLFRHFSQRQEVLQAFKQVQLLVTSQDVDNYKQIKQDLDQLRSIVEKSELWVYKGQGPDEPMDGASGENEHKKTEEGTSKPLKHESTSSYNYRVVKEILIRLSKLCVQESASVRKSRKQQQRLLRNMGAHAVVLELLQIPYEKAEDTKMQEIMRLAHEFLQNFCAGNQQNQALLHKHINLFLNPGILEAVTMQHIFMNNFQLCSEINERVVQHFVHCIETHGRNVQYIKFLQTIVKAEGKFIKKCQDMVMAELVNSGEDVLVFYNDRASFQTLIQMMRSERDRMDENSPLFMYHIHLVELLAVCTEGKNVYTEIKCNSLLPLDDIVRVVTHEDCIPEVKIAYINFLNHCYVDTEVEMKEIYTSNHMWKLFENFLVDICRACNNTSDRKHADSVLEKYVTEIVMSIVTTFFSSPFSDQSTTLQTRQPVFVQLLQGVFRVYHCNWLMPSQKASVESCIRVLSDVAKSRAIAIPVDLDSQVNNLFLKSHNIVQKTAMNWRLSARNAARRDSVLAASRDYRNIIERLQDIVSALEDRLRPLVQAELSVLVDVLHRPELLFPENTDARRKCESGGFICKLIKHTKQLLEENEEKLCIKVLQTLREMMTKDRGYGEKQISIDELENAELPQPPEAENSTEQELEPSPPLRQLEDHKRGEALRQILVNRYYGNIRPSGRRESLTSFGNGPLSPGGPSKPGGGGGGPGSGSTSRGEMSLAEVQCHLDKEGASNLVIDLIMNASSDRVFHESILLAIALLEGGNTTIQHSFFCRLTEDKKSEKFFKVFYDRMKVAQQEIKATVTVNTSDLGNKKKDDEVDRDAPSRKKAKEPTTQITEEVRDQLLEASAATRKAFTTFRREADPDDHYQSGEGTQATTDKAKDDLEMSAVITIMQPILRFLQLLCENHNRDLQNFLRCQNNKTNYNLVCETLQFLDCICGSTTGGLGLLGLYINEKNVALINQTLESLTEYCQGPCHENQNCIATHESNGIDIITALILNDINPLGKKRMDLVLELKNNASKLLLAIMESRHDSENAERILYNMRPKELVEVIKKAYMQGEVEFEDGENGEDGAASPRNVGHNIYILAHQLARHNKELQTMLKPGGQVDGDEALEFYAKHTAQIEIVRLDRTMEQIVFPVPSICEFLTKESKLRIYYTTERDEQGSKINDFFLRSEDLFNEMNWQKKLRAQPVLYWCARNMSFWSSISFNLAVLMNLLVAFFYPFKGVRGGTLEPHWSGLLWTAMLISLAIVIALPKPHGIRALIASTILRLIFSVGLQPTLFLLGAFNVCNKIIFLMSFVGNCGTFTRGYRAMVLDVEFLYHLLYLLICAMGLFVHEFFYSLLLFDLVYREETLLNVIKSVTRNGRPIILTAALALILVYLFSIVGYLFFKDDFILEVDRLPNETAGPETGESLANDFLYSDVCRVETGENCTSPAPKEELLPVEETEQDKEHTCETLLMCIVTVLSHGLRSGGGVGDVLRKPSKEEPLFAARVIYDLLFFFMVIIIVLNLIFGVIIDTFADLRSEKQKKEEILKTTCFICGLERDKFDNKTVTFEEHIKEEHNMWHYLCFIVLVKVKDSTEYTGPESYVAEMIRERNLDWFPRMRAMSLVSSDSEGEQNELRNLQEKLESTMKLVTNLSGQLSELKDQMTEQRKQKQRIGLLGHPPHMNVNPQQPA
UniProt Q03431, sequence (whole entry, looked up): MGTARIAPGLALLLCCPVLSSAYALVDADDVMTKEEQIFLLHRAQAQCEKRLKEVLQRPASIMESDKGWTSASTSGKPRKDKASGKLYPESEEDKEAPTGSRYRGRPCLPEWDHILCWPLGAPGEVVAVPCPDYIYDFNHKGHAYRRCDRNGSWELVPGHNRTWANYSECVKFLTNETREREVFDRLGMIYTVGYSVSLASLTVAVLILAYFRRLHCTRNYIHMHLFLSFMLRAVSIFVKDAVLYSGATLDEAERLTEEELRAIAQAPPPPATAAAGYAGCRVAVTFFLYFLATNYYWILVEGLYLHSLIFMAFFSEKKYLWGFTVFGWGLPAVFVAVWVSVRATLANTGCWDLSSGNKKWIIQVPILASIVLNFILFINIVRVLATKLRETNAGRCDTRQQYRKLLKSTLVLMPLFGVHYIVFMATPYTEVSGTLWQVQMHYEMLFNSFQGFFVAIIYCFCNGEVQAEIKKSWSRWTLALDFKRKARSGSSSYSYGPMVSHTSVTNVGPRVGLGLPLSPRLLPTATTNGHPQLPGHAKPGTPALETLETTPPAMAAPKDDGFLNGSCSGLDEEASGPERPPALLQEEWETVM
UniProt P03951, sequence (whole entry, looked up): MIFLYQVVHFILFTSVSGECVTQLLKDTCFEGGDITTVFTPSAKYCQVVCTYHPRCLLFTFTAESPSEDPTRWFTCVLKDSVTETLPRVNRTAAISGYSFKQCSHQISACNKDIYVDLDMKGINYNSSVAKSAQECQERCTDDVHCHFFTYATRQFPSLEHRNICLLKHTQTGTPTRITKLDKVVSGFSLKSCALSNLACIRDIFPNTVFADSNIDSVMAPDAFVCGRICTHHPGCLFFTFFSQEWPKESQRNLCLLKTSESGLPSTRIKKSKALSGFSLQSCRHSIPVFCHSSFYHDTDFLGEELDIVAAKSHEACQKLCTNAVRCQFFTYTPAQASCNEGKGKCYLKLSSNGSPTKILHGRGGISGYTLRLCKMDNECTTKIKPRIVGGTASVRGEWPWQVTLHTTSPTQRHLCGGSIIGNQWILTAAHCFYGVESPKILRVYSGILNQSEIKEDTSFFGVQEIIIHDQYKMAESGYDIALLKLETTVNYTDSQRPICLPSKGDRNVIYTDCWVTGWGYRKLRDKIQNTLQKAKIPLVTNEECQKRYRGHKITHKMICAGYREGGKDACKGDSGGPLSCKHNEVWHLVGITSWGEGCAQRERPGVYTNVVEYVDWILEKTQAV

CC(C)CN(NC(=O)[C@H](CCCNC(=N)N)NC(=O)[C@H](Cc1ccc(O)cc1)NC(=O)CCCCCCC(=O)N[C@@H](Cc1ccc(O)cc1)C(=O)N[C@@H](CCCNC(=N)N)C(=O)NN(CC(C)C)C(=O)N[C@@H](CCCNC(=N)N)C(=O)N[C@@H](Cc1ccc(O)cc1)C(N)=O)C(=O)N[C@@H](CCCNC(=N)N)C(=O)N[C@@H](Cc1ccc(O)cc1)C(N)=O — intrinsic activity (Neuropeptide Y receptor type 4 (NPY4R, Homo sapiens, UniProt P50391); reporter gene, agonist; HEK293 CRE-luciferase; concentration not given, unit not given; reference: hPP): 0.75
CC12CC(c3ccc(C(=O)CO)cc3)C3=C4CCC(=O)C=C4CCC3C1CCC2(O)C(F)(F)C(F)(F)F (centres unmarked) — fully effective dose (Progesterone receptor (Rattus norvegicus, UniProt Q63449); pregnancy termination; rat, early pregnancy; oral): 1.5 mg/kg
CC(=O)NCCN(CC(=O)NCCN(CC(=O)NCCN(CC(=O)NCCC(N)=O)C(=O)[C@@H](N)Cc1ccccc1)C(=O)[C@@H](N)CCCNC(=N)N)C(=O)[C@@H](N)CCCNC(=N)N — binding free energy ΔG° (HIV-1 TAR RNA; 25 °C): -8.34 ± 0.287 kcal/mol
Cc1ccc(C(=O)Nc2ccc(CP(=O)(O)O)cc2CP(=O)(O)O)cc1NC(=O)c1cccc(NC(=O)Nc2cccc(C(=O)Nc3cc(C(=O)Nc4ccc(CP(=O)(O)O)cc4CP(=O)(O)O)ccc3C)c2)c1 — Vmax (Coagulation factor XI (F11, Homo sapiens, UniProt P03951); enzyme activity; 5 µM, pH 7.4, 37 °C, together with: S-2366): 106 ± 1.8 mAU/min
BP(=O)(OC[C@H]1O[C@@H](n2c[n+](C)c3c(O)nc(N)nc32)[C@H](O)[C@@H]1O)OP(=O)([O-])OP(=O)(O)OC[C@H]1O[C@@H](n2cnc3c(=O)[nH]c(N)nc32)[C@H](O)[C@@H]1O (some centres unmarked) — association constant (m7GpppX diphosphatase (dcs-1, Caenorhabditis elegans, UniProt G5EFS4); fluorescence quenching titration; pH 7.6, 20.0 °C): 40 ± 1.9 µM⁻¹
N=C(CCl)NCCC[C@H](NC(=O)c1ccc(/N=N\c2ccc(O)cc2)cc1)c1nc2ccccc2[nH]1 — IC50 fold difference (Protein-arginine deiminase type-2 (PADI2, Homo sapiens, UniProt Q9Y2J8); inhibitor, competitive ABPP; reference: other photoisomer over this photoisomer): > 8 fold
CC[C@H](C)[C@H](NC(=O)[C@H](CCC(=O)O)NC(=O)[C@H](CO)NC(=O)[C@@H](N)C(C)C)C(=O)N[C@@H](CCC(N)=O)C(=O)N[C@@H](CC(C)C)C(=O)N[C@@H](CCSC)C(=O)N[C@@H](Cc1c[nH]cn1)C(=O)N[C@@H](CC(N)=O)C(=O)N[C@@H](CC(C)C)C(=O)NCC(=O)N[C@@H](CCCCN)C(=O)N[C@@H](Cc1c[nH]cn1)C(=O)N[C@@H](CC(C)C)C(=O)N[C@@H](CC(N)=O)C(=O)N[C@@H](CO)C(=O)N[C@@H](CCSC)C(=O)N[C@@H](CCC(=O)O)C(=O)N[C@@H](CCCNC(=N)N)C(=O)N[C@H](C(=O)N[C@@H](CCC(=O)O)C(=O)N[C@@H](Cc1c[nH]c2ccccc12)C(=O)N[C@@H](CC(C)C)C(=O)N[C@@H](CCCNC(=N)N)C(=O)N[C@@H](CCCCN)C(=O)N[C@@H](CCCCN)C(=O)N[C@@H](CC(C)C)C(=O)N[C@@H](CCC(N)=O)C(=O)N[C@@H](CC(=O)O)C(=O)N[C@H](C(=O)N[C@@H](Cc1c[nH]cn1)C(=O)N[C@@H](CC(N)=O)C(=O)N[C@@H](Cc1ccccc1)C(=O)N[C@@H](CCCCNC(=O)c1ccc2c(c1)C1(OC2=O)c2ccc(N(C)C)cc2Oc2cc(N(C)C)ccc21)C(N)=O)C(C)C)C(C)C — koff (Parathyroid hormone/parathyroid hormone-related peptide receptor (PTH1R, Homo sapiens, UniProt Q03431); binding, NanoBRET; HEK293): 0.0053 ± 0.004 s⁻¹
COc1ccccc1-c1nnc2n1N=C(c1ccc(N(C)C)cc1)CS2 — Emax (C-X-C chemokine receptor type 4 (CXCR4, Homo sapiens, UniProt P61073); β-arrestin recruitment, agonist; U2OS): ~25%
O=C(O)C(CO)NCc1cc(Cl)c(OCc2cccc(-c3ccccc3)c2Br)cc1OCc1cccnc1 (centres unmarked) — dissociation rate constant (koff) (Programmed cell death 1 ligand 1 (Macaca fascicularis, UniProt G7PSE7); SPR): 0.000202 s⁻¹
Cc1ccc(N2C(=O)c3ccccc3NC23C(=O)N(C)c2ccc(Br)cc23)cc1 (centres unmarked) — potency ratio (Leucyl-cystinyl aminopeptidase (LNPEP, Homo sapiens, UniProt Q9UIQ6); enzyme activity, inhibitor; HEK293 overexpressing IRAP, membranes; together with: L-Leu-pNA; reference: CHO-cell IRAP over HEK293 IRAP, higher = more loss on human IRAP): 10 to 15 fold
Nc1ncnc2c1ncn2[C@@H]1O[C@H](CO)[C@@H](O[C@H]2O[C@H](CO)[C@@H](OP(=O)(O)O)[C@H](OP(=O)(O)O)[C@H]2O)[C@H]1O — Hill coefficient (Inositol 1,4,5-trisphosphate-gated calcium channel ITPR1 (Itpr1, Rattus norvegicus, UniProt P29994); binding, 3H-IP3 competition; rat cerebellum): 0.7 ± 0.1

A few entries again:
CC[C@H](C)[C@H](NC(=O)[C@H](CCC(=O)O)NC(=O)[C@H](CO)NC(=O)[C@@H](N)C(C)C)C(=O)N[C@@H](CCC(N)=O)C(=O)N[C@@H](CC(C)C)C(=O)N[C@@H](CCSC)C(=O)N[C@@H](Cc1c[nH]cn1)C(=O)N[C@@H](CC(N)=O)C(=O)N[C@@H](CC(C)C)C(=O)NCC(=O)N[C@@H](CCCCN)C(=O)N[C@@H](Cc1c[nH]cn1)C(=O)N[C@@H](CC(C)C)C(=O)N[C@@H](CC(N)=O)C(=O)N[C@@H](CO)C(=O)N[C@@H](CCSC)C(=O)N[C@@H](CCC(=O)O)C(=O)N[C@@H](CCCNC(=N)N)C(=O)N[C@H](C(=O)N[C@@H](CCC(=O)O)C(=O)N[C@@H](Cc1c[nH]c2ccccc12)C(=O)N[C@@H](CC(C)C)C(=O)N[C@@H](CCCNC(=N)N)C(=O)N[C@@H](CCCCN)C(=O)N[C@@H](CCCCN)C(=O)N[C@@H](CC(C)C)C(=O)N[C@@H](CCC(N)=O)C(=O)N[C@@H](CC(=O)O)C(=O)N[C@H](C(=O)N[C@@H](Cc1c[nH]cn1)C(=O)N[C@@H](CC(N)=O)C(=O)N[C@@H](Cc1ccccc1)C(=O)N[C@@H](CCCCNC(=O)c1ccc2c(c1)C1(OC2=O)c2ccc(N(C)C)cc2Oc2cc(N(C)C)ccc21)C(N)=O)C(C)C)C(C)C — koff (Parathyroid hormone/parathyroid hormone-related peptide receptor (PTH1R, Homo sapiens, UniProt Q03431); binding, NanoBRET; HEK293): 0.0053 ± 0.004 s⁻¹
